{"data": "Assay results gathered from unrelated publications", "note": "Numbered parts are unrelated; each lists some results of a single study."}
{"data": "Study 1", "target": "Transcriptional repressor CTCF (CTCF, Homo sapiens, UniProt P49711, residues 1-727, full length assumed)", "method": "protein-binding microarray", "molecule type": "double-stranded DNA, one strand shown", "sample": "in vitro", "tested at": "not given", "setting": "k-mer, scored over probes, only values ≥0.25", "direction": "higher = stronger binding", "UniProt P49711, sequence (whole entry, looked up)": "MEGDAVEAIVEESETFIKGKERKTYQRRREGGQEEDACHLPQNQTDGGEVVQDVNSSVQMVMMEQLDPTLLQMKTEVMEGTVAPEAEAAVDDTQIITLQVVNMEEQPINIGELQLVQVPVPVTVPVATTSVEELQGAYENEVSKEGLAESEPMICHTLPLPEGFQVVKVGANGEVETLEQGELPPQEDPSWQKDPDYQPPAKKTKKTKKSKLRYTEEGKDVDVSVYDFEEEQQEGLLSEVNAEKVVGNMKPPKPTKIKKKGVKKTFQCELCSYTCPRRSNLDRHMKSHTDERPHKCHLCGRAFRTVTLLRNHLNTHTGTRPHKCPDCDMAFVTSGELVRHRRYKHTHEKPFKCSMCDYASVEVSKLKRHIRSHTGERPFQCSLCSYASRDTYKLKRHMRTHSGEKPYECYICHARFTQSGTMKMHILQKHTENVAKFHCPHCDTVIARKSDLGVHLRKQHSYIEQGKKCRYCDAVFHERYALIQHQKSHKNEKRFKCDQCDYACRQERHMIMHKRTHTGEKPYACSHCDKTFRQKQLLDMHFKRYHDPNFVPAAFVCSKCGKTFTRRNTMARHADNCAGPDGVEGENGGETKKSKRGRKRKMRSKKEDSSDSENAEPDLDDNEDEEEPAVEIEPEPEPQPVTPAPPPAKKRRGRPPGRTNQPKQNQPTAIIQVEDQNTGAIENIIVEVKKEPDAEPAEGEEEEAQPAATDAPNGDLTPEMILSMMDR"}
{"Oligonucleotide": "ACTAGTGG", "E-score": 0.28}
{"Oligonucleotide": "CAAACATA", "E-score": 0.285}
{"Oligonucleotide": "ACCAATTA", "E-score": 0.256}
{"Oligonucleotide": "AGTACAAA", "E-score": 0.271}
{"data": "Study 2", "target": "Prothrombin, mature alpha-thrombin (F2, Homo sapiens, UniProt P00734)", "method": "aptamer microarray, sandwich", "molecule type": "DNA with 2'F-ANA", "sample": "in vitro", "tested at": "200 nM", "setting": "whole 15-mer aptamer, many near background", "added": "Cy3 exosite-II aptamer, 400 nM", "direction": "higher = stronger binding"}
{"Oligonucleotide": "GGTTGGTGTGGTTGG (2'F-ANA at 1 6 7 10 12)", "mean fluorescence intensity [a.u.]": 72.1}
{"Oligonucleotide": "GGTTGGTGTGGTTGG (2'F-ANA at 1 2 3 6 11 13 14)", "mean fluorescence intensity [a.u.]": 59.1}
{"Oligonucleotide": "GGTTGGTGTGGTTGG (2'F-ANA at 3 4 6 7 8 11 12 14 15)", "mean fluorescence intensity [a.u.]": 366}
{"data": "Further values, each from its own experiment"}
{"Substance": "AACTATAA", "target": "Histone acetyltransferase KAT6A, winged helix 1, GST fusion (KAT6A, Homo sapiens, UniProt Q92794, residues 1-85)", "test": "protein binding microarray", "system": "double-stranded DNA, one strand shown, in vitro", "setting": "not given, 8-mer, flanks averaged, mean of 2 arrays, mostly near background", "scale": "baseline: not given, higher = stronger binding", "endpoint": "E-score", "value": 0.00861}
{"Substance": "PhoQ, residues 284 288 289 292 302 303 AGCYAI", "target": "PhoP, residues 12 14 15 18 19 STHWV (Escherichia coli, UniProt P23836)", "test": "Sort-seq, item: YFP reporter", "system": "E. coli", "setting": "PhoQ-PhoP variant library, added: 10 µM Mg2+", "scale": "baseline: high Mg2+ state, higher = stronger signaling", "endpoint": "fold induction", "value": 2.94}
{"Substance": "GGTCGCCA", "target": "Histone acetyltransferase KAT6A, both winged helices, GST fusion (KAT6A, Homo sapiens, UniProt Q92794, residues 1-181)", "test": "protein binding microarray", "system": "double-stranded DNA, one strand shown, in vitro", "setting": "not given, 8-mer, flanks averaged, mean of 2 arrays, mostly near background", "scale": "baseline: not given, higher = stronger binding", "endpoint": "E-score", "value": 0.0146}
{"note": "A few entries again (further values, each from its own experiment):"}
{"Substance": "PhoQ, residues 284 288 289 292 302 303 AGCYAI", "target": "PhoP, residues 12 14 15 18 19 STHWV (Escherichia coli, UniProt P23836)", "test": "Sort-seq, item: YFP reporter", "system": "E. coli", "setting": "PhoQ-PhoP variant library, added: 10 µM Mg2+", "scale": "baseline: high Mg2+ state, higher = stronger signaling", "endpoint": "fold induction", "value": 2.94}
